Assay results pooled from the literature.
Each line is one published result; not all experiments were run side by side. Numbers after ± are the reported error.

`CS(=O)(=O)Cc1onc(-c2cccc(Cl)c2)c1-c1ccnc(N[C@@H]2CCN(Cc3nccs3)C2)n1` has a viability of 93% (HepG2; 20 µM, 48 h).
`CC1(C)CC[C@]2(C(=O)O)CC[C@]3(C)C(=CC[C@@H]4[C@@]5(C)CC[C@H](OC(=O)NCc6ccccc6)C(C)(C)[C@@H]5CC[C@]43C)[C@@H]2C1` — result for cytotoxicity: “not toxic” (N2a cells expressing human APP695; MTT; 5 µM).
`COc1ccc(S(=O)(=O)Nc2cccc(C(=O)NC3CCN(c4ncnc5[nH]cnc45)CC3)c2)cc1` has a viability of 103% (A549-ACE2; 0.03048 µM).
For `CCOc1ccc2cc(-c3nn(CC4CCNCC4)c4ncnc(N)c34)ccc2c1`, the GI50 was over 30 µM (CRL-8155; cell growth, Alamar Blue; 48 or 72 h, highest tested 30 µM).
With `O=C(O)CCOc1c(SSc2cnn(-c3ccccc3)c(=O)c2OCCC(=O)O)cnn(-c2ccccc2)c1=O` the CC50 was over 100 µM (HeLa).
`O=C(NC1CCN(c2ncnc3[nH]cnc23)CC1)c1cccc(NS(=O)(=O)c2ccc(Cl)cc2)c1` has a viability of 93.8% (A549-ACE2; 7.407 µM).
The CC50 of `COC(C)(C)Cn1cc(-c2ccc3cc(OC4CC4)ccc3c2)c2c(N)ncnc21` is reported as 43.9 µM (HepG2; cytotoxicity).
With `NCCNCCSc1ccccc1` the blood-to-plasma ratio was 1.52 ± 0.09 (mouse blood; 100 µg/mL, 30 min, 37 °C).
The Tmax of `CC(C)C[C@@H](NC(=O)[C@H](NC(=O)[C@H]1CCCN1)[C@H](C)O)C(=O)N[C@H](Cc1c[nH]cn1)C(=O)N[C@@H](C(=O)N[C@H](Cc1c[nH]cn1)C(=O)N[C@H](CC(N)=O)C(=O)N[C@H](CCCNC(=N)N)C(=O)N[C@H](CCCNC(=N)N)C(=O)N[C@H](CCCNC(=N)N)C(=O)N[C@H](CCCNC(=N)N)C(=O)N[C@H](CCCNC(=N)N)C(N)=O)[C@H](C)O` is reported as 1.3 h (healthy human, plasma; 1 160 mg daily, day 14, mean).
For `O=c1c(OCCO)c(SSc2cnn(-c3ccccc3)c(=O)c2OCCO)cnn1-c1ccccc1`, the CC50 was over 100 µM (HeLa).
For `O=C(NCCNCCO)c1cc2c([nH]c3ccccc32)c(-c2cc(Cl)c(Cl)c(Cl)c2)n1`, the CC50 was 4.54 µM (HepG2; cytotoxicity).
`COC(C)(C)Cn1nc(-c2ccc3cc(OC4CC4)ccc3c2)c2c(N)ncnc21` has a CC50 of over 80 µM (HepG2; cytotoxicity).
`O=c1c(OCCCO)c(SSc2cnn(-c3ccccc3)c(=O)c2OCCCO)cnn1-c1ccccc1` gave a CC50 of about 100 µM (HeLa).
The GI50 of `CCOc1ccc2cc(-c3nn(CC4CCNCC4)c4ncnc(N)c34)ccc2n1` is reported as over 30 µM (CRL-8155; cell growth, Alamar Blue; 48 or 72 h, highest tested 30 µM).
`C=CC(=O)Nc1cc(-n2c(=O)ccc3cnc4ccc(-c5cn[nH]c5)cc4c32)ccc1C` — result for colony formation: “no inhibition” (normal bone marrow cells; 1 µM).
`NCCNC(=O)c1cc2c([nH]c3ccccc32)c(-c2ccc(C(F)(F)F)cc2)n1` gave a CC50 of 4.53 µM (HepG2; cytotoxicity).

Excerpt of the above:
`NCCNC(=O)c1cc2c([nH]c3ccccc32)c(-c2ccc(C(F)(F)F)cc2)n1` gave a CC50 of 4.53 µM (HepG2; cytotoxicity).
`O=C(NC1CCN(c2ncnc3[nH]cnc23)CC1)c1cccc(NS(=O)(=O)c2ccc(Cl)cc2)c1` has a viability of 93.8% (A549-ACE2; 7.407 µM).
